Experimental data gathered from unrelated publications.
Protocols differ between the studies behind these lines. Values joined by “and” are separate records of one study, mostly repeats; a detail may differ.
Target: RAC-beta serine/threonine-protein kinase (AKT2, Homo sapiens, UniProt P31751)
Chain of UniProt P31751 (whole entry, looked up): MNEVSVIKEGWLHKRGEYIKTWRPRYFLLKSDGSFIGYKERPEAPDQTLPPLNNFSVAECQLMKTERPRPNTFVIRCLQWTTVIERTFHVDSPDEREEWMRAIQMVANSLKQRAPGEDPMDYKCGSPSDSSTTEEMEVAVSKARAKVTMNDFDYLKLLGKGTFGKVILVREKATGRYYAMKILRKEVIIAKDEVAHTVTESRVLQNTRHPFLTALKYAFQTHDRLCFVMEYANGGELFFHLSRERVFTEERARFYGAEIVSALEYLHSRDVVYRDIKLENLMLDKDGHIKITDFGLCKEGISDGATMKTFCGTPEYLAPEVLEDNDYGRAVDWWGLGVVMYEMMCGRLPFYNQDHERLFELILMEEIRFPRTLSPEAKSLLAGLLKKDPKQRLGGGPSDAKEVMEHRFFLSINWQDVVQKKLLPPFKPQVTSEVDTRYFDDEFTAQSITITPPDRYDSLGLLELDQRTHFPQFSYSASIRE

SMILES | test | system | setting | how to read | measurement | value
COc1ccc(NC(=O)Nc2ccc3c(c2)C(=O)N(C(C)CO)CC(C)C(CN(C)Cc2ccc4c(c2)OCO4)O3)cc1 (stereo not drawn) | kinase activity, KinaseProfiler |  | 0.03 µM, species human | reference: control | remaining activity | 107%
Cc1cccc(-c2ccc3nc(NC(=O)C4CCOCC4)nn3c2)c1 | enzyme activity, inhibitor |  | 10 µM |  | activity vs control | 66%
N[C@H]1CC[C@H](Nc2nccc(-c3cccnc3Oc3ccc(NC(=O)NC4CC4)c4ccccc34)n2)CC1 | kinobead competition pulldown | HEK293/HCT116 lysate mixture | 10 µM, 1 h, 4 °C | lower = stronger competition | log2 LFQ intensity | 21.6 and 21.7 and 22.2
CN1CC[C@@H](COc2cnc(C#N)cc2-c2ccn3nc(NC(=O)C4CC4)cc3c2)C1 | enzyme activity, inhibitor |  | 1 µM |  | inhibition | -3%
CNC(=O)C1CCN(c2cc(C)c(F)cc2NC(=O)c2ccc(-c3cc(O)ccc3C)c(C)c2)CC1 | binding, competition with immobilised ligand |  | 1 µM |  | remaining binding | 100%
CC(=O)N1c2ccc(-c3ccc(CNC(=O)c4cn5cc(-c6cnc(N)nc6)nc(N6CCOCC6)c5n4)cc3)cc2CC[C@@H]1C | KINOMEscan |  | 10 µM |  | remaining binding | 93%
CN1CCN(Cc2ccc(NC(=O)c3cccc(C#Cc4cnc(N)c5ncccc45)c3)cc2C(F)(F)F)CC1 | cell-free assay, competition with immobilised ligand |  | 50 nM |  | remaining binding | 70%
Cc1cccc(O[C@H]2CCC[C@@H](C(C)CNCc3ccncc3)C2)c1 (relative stereo) | enzyme activity, inhibitor |  | 10 µM |  | inhibition | -11%
Nc1ncc(-c2cc(-c3cnn(CC(F)(F)F)c3)ncc2F)nc1C(=O)NC1CNCC(F)C1 (stereo not drawn) | enzyme activity |  | 1 µM | reference: DMSO control | remaining activity | 106%
C=CC(=O)N1CCc2ccc(-n3c(=O)ccc4cnc5ccc(-c6cnn(C)c6)cc5c43)cc21 | KINOMEscan |  | 1 µM | reference: DMSO control | remaining binding | 88%
COc1ccc(C(=O)/C=C/c2ccccc2-c2c[nH]c3ccc(C#N)cc23)c(O)c1 | enzyme activity, inhibitor |  | 20 µM |  | inhibition | -13%
Cc1nc2c(F)cc(-c3nc(Nc4ccc(CNC(=O)CCCCCCC(=O)NO)cc4)ncc3F)cc2n1C(C)C | enzyme activity, inhibitor |  | 1 µM |  | inhibition | 31%
COc1cc(Nc2nccc(-c3cnn4nc(OC)ccc34)n2)cc(C(F)(F)F)c1 | binding, competition with immobilised ligand |  | 1 µM |  | remaining binding | 100%
NC(=O)C[C@H]1CCc2sc3ncnc(O[C@H]4CC[C@H](N5CCOCC5)CC4)c3c21 | enzyme activity, inhibitor |  | 10 µM |  | inhibition | 9%
Cc1cccc(-c2ccc3nc(NC(=O)C4CCCCC4)nn3c2)c1 | enzyme activity, inhibitor |  | 10 µM |  | activity vs control | 75%
